{"data": "Experimental data pooled from the literature", "note": "Numbered parts are unrelated; each lists some results of a single study. Substitutions count along the parent as printed."}
{"data": "Set 1", "target": "Eukaryotic initiation factor 4A-I (EIF4A1, Homo sapiens, UniProt P60842, residues 1-406, full length assumed)", "technique": "RNA Bind-n-Seq", "form": "RNA", "medium": "in vitro", "concentration": "15 pmol", "setting": "4-mer, random 30-nt RNA, single round", "together with": "3 µM DMDA-PatA, 2 mM AMP-PNP", "reference": "input library", "direction": "higher = stronger binding", "UniProt P60842, sequence (whole entry, looked up)": "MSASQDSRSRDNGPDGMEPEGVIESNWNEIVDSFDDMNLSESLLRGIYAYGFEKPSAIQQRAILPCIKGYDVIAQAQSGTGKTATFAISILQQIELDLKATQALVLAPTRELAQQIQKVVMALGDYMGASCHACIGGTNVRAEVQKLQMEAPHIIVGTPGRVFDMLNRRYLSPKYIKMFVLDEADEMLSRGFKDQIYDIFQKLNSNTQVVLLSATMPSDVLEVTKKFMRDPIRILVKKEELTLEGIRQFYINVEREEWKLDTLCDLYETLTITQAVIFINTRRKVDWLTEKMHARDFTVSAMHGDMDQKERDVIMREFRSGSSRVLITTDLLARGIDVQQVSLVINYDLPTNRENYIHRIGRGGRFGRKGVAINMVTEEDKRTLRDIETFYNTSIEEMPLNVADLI"}
{"Strand": "UCGC", "4-mer enrichment [fold]": 0.97}
{"Strand": "CUUU", "4-mer enrichment [fold]": 1.03}
{"Strand": "CAUC", "4-mer enrichment [fold]": 0.4}
{"Strand": "UGAG", "4-mer enrichment [fold]": 1.11}
{"Strand": "CGGC", "4-mer enrichment [fold]": 0.655}
{"Strand": "GAGA", "4-mer enrichment [fold]": 1.27}
{"Strand": "CCGA", "4-mer enrichment [fold]": 0.739}
{"Strand": "UUUU", "4-mer enrichment [fold]": 1.18}
{"data": "Set 2", "target": "vanadate, free oxyanion", "technique": "microfluidic competitive inhibition", "medium": "in vitro, cell-free expressed", "concentration": "not given", "setting": "derived from inhibition constants, unchanged parent 676 nM", "direction": "lower = stronger binding", "parent": "PafA, mature enzyme, eGFP fusion (Elizabethkingia meningoseptica, UniProt Q9KJX5); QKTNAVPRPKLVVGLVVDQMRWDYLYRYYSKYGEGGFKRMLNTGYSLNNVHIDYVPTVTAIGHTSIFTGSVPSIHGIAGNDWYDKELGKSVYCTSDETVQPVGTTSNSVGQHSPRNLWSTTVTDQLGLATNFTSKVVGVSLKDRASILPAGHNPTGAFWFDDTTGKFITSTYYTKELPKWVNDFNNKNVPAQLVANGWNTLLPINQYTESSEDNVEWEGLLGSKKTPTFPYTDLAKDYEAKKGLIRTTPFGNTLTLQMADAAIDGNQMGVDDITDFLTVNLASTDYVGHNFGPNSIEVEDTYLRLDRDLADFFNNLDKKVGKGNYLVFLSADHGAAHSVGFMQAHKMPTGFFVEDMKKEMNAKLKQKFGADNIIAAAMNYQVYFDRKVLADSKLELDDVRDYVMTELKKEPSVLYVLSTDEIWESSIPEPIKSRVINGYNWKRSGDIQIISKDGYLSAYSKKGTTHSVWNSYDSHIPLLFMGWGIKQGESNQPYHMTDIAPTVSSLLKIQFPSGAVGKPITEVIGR"}
{"Substitution": "S134G", "oxyanion analog dissociation constant": "682 nM"}
{"Substitution": "F250V", "oxyanion analog dissociation constant": "1.03 µM"}
{"Substitution": "G79A", "oxyanion analog dissociation constant": "634 nM"}
{"data": "Set 3", "target": "Prothrombin, mature alpha-thrombin (F2, Homo sapiens, UniProt P00734)", "technique": "aptamer microarray, sandwich", "form": "DNA with 2'F-ANA", "medium": "in vitro", "concentration": "200 nM", "setting": "whole 15-mer aptamer, many near background", "together with": "Cy3 exosite-II aptamer, 400 nM", "direction": "higher = stronger binding", "strand": "GGTTGGTGTGGTTGG"}
{"Modification": "2'F-ANA at 1 2 6 8 9 10", "mean fluorescence intensity": "53.8 a.u."}
{"Modification": "2'F-ANA at 6 7 8 10 13", "mean fluorescence intensity": "148 a.u."}
{"Modification": "2'F-ANA at 2 3 5 10 11 13", "mean fluorescence intensity": "57.3 a.u."}
{"Modification": "2'F-ANA at 1 2 5 6 7 12", "mean fluorescence intensity": "229 a.u."}
{"Modification": "2'F-ANA at 7 8 9 10", "mean fluorescence intensity": "206 a.u."}
{"Modification": "2'F-ANA at 1 3 11 13 14", "mean fluorescence intensity": "99.6 a.u."}
{"Modification": "2'F-ANA at 1 4 7 9 10 11 12 14", "mean fluorescence intensity": "61.5 a.u."}
{"Modification": "2'F-ANA at 1 2 4 8 12 13 14 15", "mean fluorescence intensity": "58.8 a.u."}
{"data": "Set 4", "target": "CCNA1, cyclin fold, Cln2 fusion (human)", "technique": "yeast growth competition, sequencing", "medium": "yeast", "setting": "strong parent motif", "reference": "not given", "direction": "higher = stronger binding", "parent": "viral docking peptide; YKVKRRLVFGADD"}
{"Substitution": "V3G", "normalised enrichment score": 0.25}
{"Substitution": "L7M", "normalised enrichment score": 0.363}
{"Substitution": "A11V", "normalised enrichment score": 1.2}
{"Substitution": "L7K", "normalised enrichment score": 0.312}
{"Substitution": "F9R", "normalised enrichment score": 0.333}
{"Substitution": "R5K", "normalised enrichment score": 1}
{"Substitution": "V8K", "normalised enrichment score": 1.36}
{"Substitution": "R6K", "normalised enrichment score": 1.26}
{"Substitution": "R6P", "normalised enrichment score": 0.079}
{"Substitution": "K4R", "normalised enrichment score": 1.26}
{"Substitution": "V3P", "normalised enrichment score": 0.922}
{"Substitution": "R5K F9L", "normalised enrichment score": 0.178}
{"Substitution": "K4E", "normalised enrichment score": -0.323}
{"Substitution": "D12S", "normalised enrichment score": 0.679}
{"Substitution": "D12Q", "normalised enrichment score": 1.3}
{"Substitution": "K4I", "normalised enrichment score": -0.711}
{"Substitution": "G10Q", "normalised enrichment score": 1.39}
{"Substitution": "V3M", "normalised enrichment score": 0.362}
{"Substitution": "D12W", "normalised enrichment score": 0.401}
{"Substitution": "F9Y", "normalised enrichment score": 1.44}
{"Substitution": "K4D", "normalised enrichment score": 0.448}
{"Substitution": "V3H", "normalised enrichment score": 0.0892}
{"data": "Set 5", "target": "PABPC1L2, full length, GST fusion (mouse, UniProt A0ABA7IW68)", "technique": "RNAcompete", "form": "RNA", "medium": "in vitro", "concentration": "20 nM", "setting": "7-mer, probes averaged, single round", "reference": "mean of 7-mers", "direction": "higher = stronger binding", "Residues (chain)": "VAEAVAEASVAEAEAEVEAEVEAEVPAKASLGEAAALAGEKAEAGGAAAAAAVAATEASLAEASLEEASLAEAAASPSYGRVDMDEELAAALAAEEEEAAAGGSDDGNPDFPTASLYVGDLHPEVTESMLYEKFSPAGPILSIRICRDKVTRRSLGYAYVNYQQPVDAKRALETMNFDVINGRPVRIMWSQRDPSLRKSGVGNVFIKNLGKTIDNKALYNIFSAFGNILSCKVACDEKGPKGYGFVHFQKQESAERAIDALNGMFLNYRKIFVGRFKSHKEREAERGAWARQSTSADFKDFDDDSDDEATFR"}
{"Strand": "GGAAAAC", "7-mer Z-score": 1.67}
{"Strand": "GUGCGGG", "7-mer Z-score": 0.124}
{"Strand": "AAGGAGU", "7-mer Z-score": 0.195}
{"Strand": "UCUUUGC", "7-mer Z-score": -0.49}
{"Strand": "CAUGGGU", "7-mer Z-score": -0.0573}
{"Strand": "UUGGUGG", "7-mer Z-score": -0.132}
{"Strand": "GGUUUUA", "7-mer Z-score": -0.197}
{"Strand": "CCAUAAA", "7-mer Z-score": 2.72}
{"data": "Further values, each from its own experiment", "target": "UDP-N-acetylglucosamine--peptide N-acetylglucosaminyltransferase 110 kDa subunit (OGT, Homo sapiens, UniProt O15294)", "effect on": "binding", "technique": "phage display NGS", "form": "peptide", "concentration": "concentration not given", "reference": "input library", "Residues used in one study (O15294 1-1046)": "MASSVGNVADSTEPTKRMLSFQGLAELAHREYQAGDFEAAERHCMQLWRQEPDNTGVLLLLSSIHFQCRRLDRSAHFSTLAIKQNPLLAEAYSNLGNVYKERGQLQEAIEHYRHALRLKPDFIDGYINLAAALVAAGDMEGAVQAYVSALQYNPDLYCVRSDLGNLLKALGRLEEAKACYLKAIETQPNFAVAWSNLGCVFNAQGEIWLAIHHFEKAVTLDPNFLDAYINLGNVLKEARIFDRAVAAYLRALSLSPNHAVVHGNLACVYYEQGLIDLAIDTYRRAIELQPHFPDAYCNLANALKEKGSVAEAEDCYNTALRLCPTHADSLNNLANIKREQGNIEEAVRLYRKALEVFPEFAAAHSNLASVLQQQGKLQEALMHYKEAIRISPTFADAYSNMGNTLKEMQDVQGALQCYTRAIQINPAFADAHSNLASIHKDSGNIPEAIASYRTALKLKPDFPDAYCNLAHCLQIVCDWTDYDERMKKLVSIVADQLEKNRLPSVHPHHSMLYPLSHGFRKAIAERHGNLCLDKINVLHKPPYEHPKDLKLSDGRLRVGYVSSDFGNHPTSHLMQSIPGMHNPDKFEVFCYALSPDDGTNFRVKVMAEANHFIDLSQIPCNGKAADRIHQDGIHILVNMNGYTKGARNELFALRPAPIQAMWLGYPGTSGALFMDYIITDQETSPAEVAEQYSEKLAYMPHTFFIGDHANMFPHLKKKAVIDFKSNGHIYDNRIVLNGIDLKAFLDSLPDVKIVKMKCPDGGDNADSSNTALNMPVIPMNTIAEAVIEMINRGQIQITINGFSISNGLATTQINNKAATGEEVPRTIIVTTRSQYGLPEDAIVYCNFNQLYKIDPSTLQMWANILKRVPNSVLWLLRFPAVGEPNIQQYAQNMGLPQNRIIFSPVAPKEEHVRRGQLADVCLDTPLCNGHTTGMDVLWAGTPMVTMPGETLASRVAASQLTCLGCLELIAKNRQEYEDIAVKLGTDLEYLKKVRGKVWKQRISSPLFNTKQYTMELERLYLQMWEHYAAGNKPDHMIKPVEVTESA"}
{"Sequence": "HLQTVHSHSYYLRS", "enrichment fold change": 2.31}
{"Sequence": "MEEYLPQYTIEVVPI", "enrichment fold change": 2.61}
{"note": "Some of these lines once more (set 5):"}
{"Strand": "UCUUUGC", "7-mer Z-score": -0.49}
{"Strand": "CAUGGGU", "7-mer Z-score": -0.0573}
{"Strand": "UUGGUGG", "7-mer Z-score": -0.132}
{"Strand": "GGUUUUA", "7-mer Z-score": -0.197}
{"Strand": "CCAUAAA", "7-mer Z-score": 2.72}
